Results of several laboratories.
HDAC3 with NCoR2 DAD: Histone deacetylase 3, with NCoR2 DAD (HDAC3, Homo sapiens, UniProt O15379)
Chain of UniProt O15379 (whole entry, looked up): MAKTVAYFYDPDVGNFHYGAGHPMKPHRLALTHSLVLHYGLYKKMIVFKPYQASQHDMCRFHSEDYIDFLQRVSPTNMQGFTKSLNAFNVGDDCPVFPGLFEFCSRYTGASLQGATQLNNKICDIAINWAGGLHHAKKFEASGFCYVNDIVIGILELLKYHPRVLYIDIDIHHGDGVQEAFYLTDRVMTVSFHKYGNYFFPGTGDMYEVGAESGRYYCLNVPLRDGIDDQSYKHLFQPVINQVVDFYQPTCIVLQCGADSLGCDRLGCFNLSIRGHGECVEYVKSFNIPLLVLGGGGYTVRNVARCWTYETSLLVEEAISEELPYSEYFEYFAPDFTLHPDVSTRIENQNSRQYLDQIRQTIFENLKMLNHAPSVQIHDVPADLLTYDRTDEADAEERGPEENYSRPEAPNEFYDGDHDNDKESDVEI
HDAC3: Histone deacetylase 3 (HDAC3, Homo sapiens, UniProt O15379)

With `O=C(NO)c1cncc(OS(=O)(=O)Oc2ccc(-n3ccnc3)cc2)c1` the IC50 was 1.91 µM (HDAC3 with NCoR2 DAD; enzyme activity, inhibitor, fluorogenic; with: substrate 20 µM).
`CCCC[C@H](NC(=O)C1CN(C)C1)c1ncc(-c2cc3ccccc3nc2OC)[nH]1` has a Ki of 0.273 µM (HDAC3; enzyme activity, inhibitor, progress curve fitting).
`O=C(NO)c1ccc(Cn2cnc3c(Nc4ccc(Cl)cc4)ncnc32)cc1` has an IC50 of 0.0151 µM (HDAC3; enzyme activity, inhibitor; with: Ac-RHKK(Ac)-AMC substrate).
`O=C(NO)c1cncc(OS(=O)(=O)Oc2ccc(C(F)(F)F)cc2)c1` gave a Ki of 0.905 µM (HDAC3 with NCoR2 DAD; enzyme activity, inhibitor, fluorogenic).
`O=C(CCCCCCC(=O)Nc1ccc(CCF)cc1)NO` gave an IC50 of 0.146 µM (HDAC3).
The IC50 of `C=CCC[C@@H]1NC(=O)[C@H]2CCCN2C(=O)[C@H](Cc2ccccc2)NC(=O)C(C)(C)NC1=O` is reported as over 300 µM (Histone deacetylase 3, with NCoR2 (HDAC3, Homo sapiens, UniProt O15379); enzyme activity).
With `CCCCN(Cc1ccc(C(=O)NO)cc1)C(=O)Nc1ccccc1` the Kd was over 30.2 µM (HDAC3; inhibitor, competition pulldown; SW620 and MV4-11 lysate; 1 h).
`O=C(NO)c1cncc(OS(=O)(=O)Oc2ccc3ccccc3c2)c1` gave an IC50 of 1.28 µM (HDAC3 with NCoR2 DAD; enzyme activity, inhibitor, fluorogenic; with: substrate 20 µM).
`CCCC[C@H](NC(=O)[C@H](C)c1c(C)[nH]c2ccc(O)cc12)c1ncc(-c2cc3ccccc3nc2OC)[nH]1` gave a Ki of 0.06 µM (HDAC3; enzyme activity, inhibitor, progress curve fitting).
For `CCCCOc1ccc(CC(=O)NO)cc1`, the Kd was over 30.2 µM (HDAC3; inhibitor, competition pulldown; SW620 and MV4-11 lysate; 1 h).

Excerpt of the above:
`O=C(NO)c1cncc(OS(=O)(=O)Oc2ccc(C(F)(F)F)cc2)c1` gave a Ki of 0.905 µM (HDAC3 with NCoR2 DAD; enzyme activity, inhibitor, fluorogenic).
